Measured values collected from several papers.
A part holds a random share of what one study measured.
Sequence of UniProt Q16288 (whole entry, looked up): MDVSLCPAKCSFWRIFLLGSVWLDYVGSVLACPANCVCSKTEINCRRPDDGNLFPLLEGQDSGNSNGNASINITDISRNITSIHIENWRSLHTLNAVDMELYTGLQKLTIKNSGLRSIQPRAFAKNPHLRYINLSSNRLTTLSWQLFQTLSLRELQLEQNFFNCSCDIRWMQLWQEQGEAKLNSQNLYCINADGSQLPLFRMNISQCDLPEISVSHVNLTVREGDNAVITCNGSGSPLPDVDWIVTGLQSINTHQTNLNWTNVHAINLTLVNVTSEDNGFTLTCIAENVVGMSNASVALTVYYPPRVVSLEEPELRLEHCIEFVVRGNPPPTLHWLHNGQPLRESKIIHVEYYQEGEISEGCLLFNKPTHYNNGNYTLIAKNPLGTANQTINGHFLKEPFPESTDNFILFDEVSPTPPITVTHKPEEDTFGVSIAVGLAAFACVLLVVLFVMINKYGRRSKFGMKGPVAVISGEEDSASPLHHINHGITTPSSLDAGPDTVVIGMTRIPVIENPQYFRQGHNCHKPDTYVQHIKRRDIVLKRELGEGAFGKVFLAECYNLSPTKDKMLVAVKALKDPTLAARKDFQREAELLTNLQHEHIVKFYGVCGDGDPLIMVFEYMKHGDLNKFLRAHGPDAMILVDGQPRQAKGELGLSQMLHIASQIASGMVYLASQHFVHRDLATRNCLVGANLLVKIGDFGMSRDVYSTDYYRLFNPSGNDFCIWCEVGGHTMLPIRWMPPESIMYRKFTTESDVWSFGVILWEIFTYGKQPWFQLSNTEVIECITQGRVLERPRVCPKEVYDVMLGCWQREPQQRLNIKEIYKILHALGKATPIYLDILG
Sequence of UniProt Q9BX84 (whole entry, looked up): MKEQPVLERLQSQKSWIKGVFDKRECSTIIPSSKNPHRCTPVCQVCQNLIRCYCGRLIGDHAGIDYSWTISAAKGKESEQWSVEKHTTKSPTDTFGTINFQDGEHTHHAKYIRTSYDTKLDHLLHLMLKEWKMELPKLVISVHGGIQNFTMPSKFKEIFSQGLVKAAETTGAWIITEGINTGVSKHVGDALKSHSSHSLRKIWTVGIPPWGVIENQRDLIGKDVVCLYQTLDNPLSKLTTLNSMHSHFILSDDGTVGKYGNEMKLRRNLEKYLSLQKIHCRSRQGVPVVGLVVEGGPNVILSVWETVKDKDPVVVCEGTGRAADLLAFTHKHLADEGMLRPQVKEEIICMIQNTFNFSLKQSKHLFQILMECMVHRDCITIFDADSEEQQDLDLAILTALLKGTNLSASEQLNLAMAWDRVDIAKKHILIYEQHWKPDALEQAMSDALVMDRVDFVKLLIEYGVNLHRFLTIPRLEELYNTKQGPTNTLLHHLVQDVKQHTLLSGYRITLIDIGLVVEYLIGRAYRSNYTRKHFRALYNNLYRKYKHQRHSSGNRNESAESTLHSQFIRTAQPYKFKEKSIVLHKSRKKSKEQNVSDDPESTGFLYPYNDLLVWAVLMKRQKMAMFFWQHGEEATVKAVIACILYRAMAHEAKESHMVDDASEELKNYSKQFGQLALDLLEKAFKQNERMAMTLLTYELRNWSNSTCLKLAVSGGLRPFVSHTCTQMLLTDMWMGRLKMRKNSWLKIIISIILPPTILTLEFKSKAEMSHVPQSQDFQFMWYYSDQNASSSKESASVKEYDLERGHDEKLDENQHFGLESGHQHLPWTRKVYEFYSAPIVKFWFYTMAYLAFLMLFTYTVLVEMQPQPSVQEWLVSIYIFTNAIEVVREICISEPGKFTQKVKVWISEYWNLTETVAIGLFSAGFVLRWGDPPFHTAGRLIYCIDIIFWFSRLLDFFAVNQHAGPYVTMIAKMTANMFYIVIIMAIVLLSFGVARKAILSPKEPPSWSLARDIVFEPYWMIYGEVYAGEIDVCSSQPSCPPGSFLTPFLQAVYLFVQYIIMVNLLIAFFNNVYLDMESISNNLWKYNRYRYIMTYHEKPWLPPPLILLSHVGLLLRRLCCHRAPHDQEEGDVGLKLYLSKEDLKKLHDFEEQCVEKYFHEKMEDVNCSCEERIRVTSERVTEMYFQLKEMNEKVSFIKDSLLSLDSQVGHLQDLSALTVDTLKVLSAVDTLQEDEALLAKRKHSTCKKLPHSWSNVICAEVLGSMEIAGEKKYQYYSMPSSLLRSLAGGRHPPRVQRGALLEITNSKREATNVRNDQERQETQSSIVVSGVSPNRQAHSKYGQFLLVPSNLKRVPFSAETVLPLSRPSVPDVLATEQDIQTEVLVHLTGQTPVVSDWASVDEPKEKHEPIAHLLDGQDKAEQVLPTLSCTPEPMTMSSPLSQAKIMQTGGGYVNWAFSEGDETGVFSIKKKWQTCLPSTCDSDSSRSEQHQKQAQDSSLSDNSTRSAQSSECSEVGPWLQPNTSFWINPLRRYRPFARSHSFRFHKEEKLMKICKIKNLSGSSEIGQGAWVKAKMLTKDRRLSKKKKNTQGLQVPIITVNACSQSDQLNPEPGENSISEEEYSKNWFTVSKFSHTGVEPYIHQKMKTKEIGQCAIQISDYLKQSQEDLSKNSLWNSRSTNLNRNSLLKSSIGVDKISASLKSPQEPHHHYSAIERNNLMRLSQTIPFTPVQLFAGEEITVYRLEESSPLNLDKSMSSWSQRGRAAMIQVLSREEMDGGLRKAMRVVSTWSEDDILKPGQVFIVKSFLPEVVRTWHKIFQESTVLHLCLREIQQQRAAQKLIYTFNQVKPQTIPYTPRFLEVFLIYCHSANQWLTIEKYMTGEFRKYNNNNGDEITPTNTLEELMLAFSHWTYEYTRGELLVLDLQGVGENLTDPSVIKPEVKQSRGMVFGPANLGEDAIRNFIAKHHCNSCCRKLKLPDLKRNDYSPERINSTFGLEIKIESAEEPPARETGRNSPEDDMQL
Sequence of UniProt P45983 (whole entry, looked up): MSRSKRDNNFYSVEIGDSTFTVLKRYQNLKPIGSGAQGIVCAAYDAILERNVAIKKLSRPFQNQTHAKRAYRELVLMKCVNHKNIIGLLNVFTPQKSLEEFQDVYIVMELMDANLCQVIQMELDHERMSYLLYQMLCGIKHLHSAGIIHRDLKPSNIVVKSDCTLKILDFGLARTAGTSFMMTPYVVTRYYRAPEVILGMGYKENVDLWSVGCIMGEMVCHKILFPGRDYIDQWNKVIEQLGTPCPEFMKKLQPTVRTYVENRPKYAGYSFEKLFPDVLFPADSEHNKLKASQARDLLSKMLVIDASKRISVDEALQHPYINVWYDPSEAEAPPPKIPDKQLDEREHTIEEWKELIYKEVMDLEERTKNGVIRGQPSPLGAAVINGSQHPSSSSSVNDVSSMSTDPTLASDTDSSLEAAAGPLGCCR
Sequence of UniProt Q9NY57 (whole entry, looked up): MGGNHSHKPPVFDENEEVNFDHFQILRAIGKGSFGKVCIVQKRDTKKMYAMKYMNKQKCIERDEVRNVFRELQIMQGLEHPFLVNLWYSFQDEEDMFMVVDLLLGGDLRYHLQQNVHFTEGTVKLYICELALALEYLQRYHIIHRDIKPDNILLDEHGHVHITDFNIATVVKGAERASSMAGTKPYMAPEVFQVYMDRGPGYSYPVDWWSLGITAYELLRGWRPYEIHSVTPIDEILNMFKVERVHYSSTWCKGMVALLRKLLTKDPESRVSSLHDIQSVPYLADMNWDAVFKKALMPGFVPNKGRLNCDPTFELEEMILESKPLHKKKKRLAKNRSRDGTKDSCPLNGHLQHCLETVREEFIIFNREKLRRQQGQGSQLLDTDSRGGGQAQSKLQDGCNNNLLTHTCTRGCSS
Sequence of UniProt Q9Y6M4 (whole entry, looked up): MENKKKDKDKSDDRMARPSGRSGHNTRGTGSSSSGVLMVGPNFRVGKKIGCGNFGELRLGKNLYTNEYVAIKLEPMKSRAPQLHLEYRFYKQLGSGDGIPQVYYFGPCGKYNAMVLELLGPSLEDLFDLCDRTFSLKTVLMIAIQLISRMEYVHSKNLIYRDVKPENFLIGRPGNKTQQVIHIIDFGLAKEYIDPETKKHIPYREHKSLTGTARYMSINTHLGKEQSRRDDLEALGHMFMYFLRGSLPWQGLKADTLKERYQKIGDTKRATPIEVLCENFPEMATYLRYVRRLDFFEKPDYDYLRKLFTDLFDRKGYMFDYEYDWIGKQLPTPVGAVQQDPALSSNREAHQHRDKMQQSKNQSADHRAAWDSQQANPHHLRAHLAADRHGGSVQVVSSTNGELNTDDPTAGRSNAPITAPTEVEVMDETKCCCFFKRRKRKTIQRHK

Study 1
Species: human
Matrix: microsomes or S9
Tested at: 2 µM
Time: 0.5 h
Quantity: remaining compound
COC(=O)c1cccc2c1CN(c1cccc(C(=O)OC(C)(C)C)c1)C2=O: > 99%
O=C(NCc1cccc(F)c1)c1c(OCC2CC2)cc(=O)n2c1CCCCC2: 19.9%
COc1ccc(N2CC(C(=O)N3CCc4cc(-c5ccno5)ccc43)CC2=O)cc1 (centres unmarked): 73.3%
Cc1ccc(Nc2nc(-c3sc(C)nc3C)cs2)nc1: 0.49%
CC(C)n1nc(-c2ccc3nc(N)sc3c2)c2c(N)ncnc21: > 99%
COc1ccccc1NC(=O)c1cc2c(OC)cccc2[nH]1: 6.8%
Cc1cc2occ(CC(=O)N3CCOC4(CCCOC4)C3)c2cc1C(C)C (centres unmarked): 43.1%
C[C@@H](c1ccccc1)N1C(=O)OC[C@H]1CN1CCCC1CO (some centres unmarked): 77.3%
Nc1cc(S(=O)(=O)c2ccc(Nc3ccccc3)c(N)c2)ccc1Nc1ccccc1: 72.8%

Study 2
SMILES: CCc1ccccc1C(=O)Nc1n[nH]c2c(C)c(F)c(C3C(C#N)=C(C)N(C)C(C)=C3C#N)cc12
Observed: cell-free assay
Technique: competition with immobilised ligand
Tested at: 1 µM
Quantity: remaining binding
Tyrosine-protein kinase ABL1, phosphorylated (ABL1, Homo sapiens, UniProt P00519, H396P): 97%
Casein kinase I isoform gamma-3 (CSNK1G3, Homo sapiens, UniProt Q9Y6M4): 100%
Serine/threonine-protein kinase 32B (STK32B, Homo sapiens, UniProt Q9NY57): 98%
NT-3 growth factor receptor (NTRK3, Homo sapiens, UniProt Q16288): 100%
eIF-2-alpha kinase GCN2, C-terminal kinase domain (EIF2AK4, Homo sapiens, UniProt Q9P2K8, S808G): 43%
Mitogen-activated protein kinase 8 (MAPK8, Homo sapiens, UniProt P45983): 71%
Transient receptor potential cation channel subfamily M member 6 (TRPM6, Homo sapiens, UniProt Q9BX84): 100%
ALK tyrosine kinase receptor (ALK, Homo sapiens, UniProt Q9UM73, L1196M): 83%
Homeodomain-interacting protein kinase 4 (HIPK4, Homo sapiens, UniProt Q8NE63): 100%

Study 3
Target: Mitogen-activated protein kinase 9 (MAPK9, Homo sapiens, UniProt P45984)
Sequence of UniProt P45984 (whole entry, looked up): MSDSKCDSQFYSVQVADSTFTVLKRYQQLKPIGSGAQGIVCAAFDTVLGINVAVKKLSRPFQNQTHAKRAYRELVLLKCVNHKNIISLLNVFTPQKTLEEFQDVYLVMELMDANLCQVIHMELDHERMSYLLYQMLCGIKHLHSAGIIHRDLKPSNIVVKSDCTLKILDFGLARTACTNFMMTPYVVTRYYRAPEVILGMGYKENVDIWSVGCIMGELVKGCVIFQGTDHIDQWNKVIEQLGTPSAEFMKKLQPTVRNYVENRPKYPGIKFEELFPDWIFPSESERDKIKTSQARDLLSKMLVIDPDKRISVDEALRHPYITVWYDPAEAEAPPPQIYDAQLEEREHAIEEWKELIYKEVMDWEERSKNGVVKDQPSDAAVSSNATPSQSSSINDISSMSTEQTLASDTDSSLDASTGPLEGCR
Observed: enzyme activity
Mode: inhibitor
Tested at: 0.5 µM
Reference: control
Quantity: remaining activity
O=C(Nc1cccc(Nc2cc(Nc3cccc(C(F)(F)F)c3)ncn2)c1)C1CC1: 98.2%
CO[C@H]1C[C@@H]2CC[C@@H](C)[C@@](O)(O2)C(=O)C(=O)N2CCCC[C@H]2C(=O)O[C@H]([C@H](C)C[C@@H]2CC[C@@H](O)[C@H](OC)C2)CC(=O)[C@H](C)/C=C(\C)[C@@H](O)[C@@H](OC)C(=O)[C@H](C)C[C@H](C)/C=C/C=C/C=C/1C: 98.4%
Nc1ncnc2n[nH]c(Nc3ccc(F)cc3)c12: 103%
COc1cc2ncnc(Nc3ccc(F)c(Cl)c3)c2cc1OCCCN1CCOCC1: 95.5%
Cc1cccc(-c2[nH]c(C(C)(C)C)nc2-c2ccc3c(c2)OCO3)n1: 98.2%
OCC(O)CCON=C1C(c2c(O)[nH]c3ccccc23)=Nc2ccccc21 (centres unmarked): 44.3%
N#CC(C#N)=C(N)/C(C#N)=C/c1ccc(O)cc1: 105%
O=C1NC(=O)C(c2cn(CCCO)c3ncccc23)=C1c1cnccn1: 100%
Nc1[nH]nc2nc3ccccc3nc12: 103%
Oc1ccc(-c2nc(-c3ccncc3)c(-c3ccc(F)cc3)[nH]2)cc1: 93.4%
O=S(=O)(c1cccc2cnccc12)N1CCCNCC1: 87%
CN(C)c1ccc(C=C2C(=O)Nc3ccccc32)cc1: 103%
COc1cc2nccc(Oc3ccc(NC(=S)NC(=O)c4ccccc4C)cc3)c2cc1OC: 82.7%

Study 4
Cell line: Huh-7
Tested at: 10 µM
Time: 24 h
Quantity: viability
CCOC(=O)[C@H](CCc1ccccc1)N[C@H]1CCc2ccccc2N(CC(=O)O)C1=O: 96%
CCCCOc1ccc(OCCCN2CCOCC2)cc1: 96.1%
CCOC(=O)[C@H](CCc1ccccc1)N[C@@H](C)C(=O)N1Cc2ccccc2C[C@H]1C(=O)O: 97%
NC(=O)c1ccccc1O: 103%
CCCCC1C(=O)N(c2ccccc2)N(c2ccccc2)C1=O: 96.7%
CCCCC(=O)O[C@]1(C(=O)CO)[C@@H](C)C[C@H]2[C@@H]3CCC4=CC(=O)C=C[C@]4(C)[C@@]3(F)[C@@H](O)C[C@@]21C: 103%
CN1CCN(CCCN2c3ccccc3Sc3ccc(C(F)(F)F)cc32)CC1: 94.3%

Excerpt of the above (study 3):
Cc1cccc(-c2[nH]c(C(C)(C)C)nc2-c2ccc3c(c2)OCO3)n1: 98.2%
Oc1ccc(-c2nc(-c3ccncc3)c(-c3ccc(F)cc3)[nH]2)cc1: 93.4%
Nc1[nH]nc2nc3ccccc3nc12: 103%
